Published values collected from several papers.
Numbers after ± are the reported error.

SMILES | tested on | assay | system | conditions | scale | quantity | result
COc1cc2c(OC3OCC(OC)C(OC)C3OC(=O)c3ccc(Br)cc3)c3c(c(-c4ccc5c(c4)OCO5)c2cc1OC)C(=O)OC3 (stereo not shown) | CAL-27 | transwell |  | 0.1 and 1 µM, 36 h | relative to: DMSO | migrating cells | decreased
CCC(=O)N(C)c1ccc(Cl)c(Cl)c1 | CAR3 constitutive androstane receptor, human | reporter gene, agonist |  | 100 µM | relative to: vehicle | fold activation | 1 fold
CO[C@@H]1[C@H](O)[C@@H](COP(=O)(O)OP(=O)([S-])OP(=O)(S)OC[C@H]2O[C@@H](n3cnc4c(=O)[nH]c(N)nc43)[C@H](O)[C@@H]2O)O[C@H]1n1c[n+](C)c2c(O)nc(N)nc21 (mixture of isomers) | Schizosaccharomyces pombe Dcp1/Dcp2 complex | substrate | capped short RNA | 5 min, 30 °C |  | decapping | 29.7 ± 2.8%
CC[C@H]1[C@@H](O)[C@@H]2[C@H](CC[C@]3(C)[C@@H]([C@H](C)CCOS(=O)(=O)[O-])CC[C@@H]23)[C@@]2(C)CC[C@@H](O)C[C@@H]12.[Na+] |  | histology | ob/ob NASH mouse model, liver | oral, 3 mg/kg once daily, before treatment, baseline of 8 week study, scale 0 to 3 | direction not given | steatosis score | 2.9 ± 0.1
COc1cc(CNC(=O)C[C@H](C)CCC=C(C)C)ccc1OCc1cn(-c2ccccc2Cl)nn1 | RXF 393 | SRB |  | 10 µM, 48 h |  | growth percent | 72.6%
CC(C)C[C@H](NC(=O)[C@H](CO)NC(=O)[C@H](CCCNC(=N)N)NC(=O)[C@H](CC(=O)O)NC(=O)[C@H](CCC(=O)O)NC(=O)[C@H](C)NC(=O)[C@@H]1CCCN1C(=O)[C@H](C)NC(=O)[C@H](CCC(=O)O)NC(=O)[C@@H]1CCCN1C(=O)[C@@H]1CCCN1)C(N)=O | dopamine system |  | rhesus monkey, contralateral putamen | intranasal, dose not given, repeated dose escalation | relative to: vehicle | HVA level reduction | 25%
COc1cc(CNC(=O)C[C@H](C)CCC=C(C)C)ccc1OCc1cn(-c2ccc(Cl)c(Cl)c2)nn1 | MDA-MB-435 melanoma cells | SRB |  | 10 µM, 48 h |  | growth percent | 91.3%
CC[C@H](C)[C@@H]1NC(=O)[C@H](CCCNC(=N)N)NC(=O)[C@H](C)NC(=O)CNC(=O)[C@H](CCCCN)NC(=O)[C@H](CCCNC(=N)N)NC(=O)[C@H](C(C)C)NC(=O)[C@H](C)NC(=O)[C@@H]2CSSC[C@@H]3NC(=O)[C@H](CO)NC(=O)[C@H]([C@@H](C)O)NC(=O)CNC(=O)[C@H](CCCNC(=N)N)NC(=O)[C@@H]4CCCN4C(=O)[C@H](CSSC[C@@H](C(=O)N[C@@H](CC(C)C)C(=O)O)NC(=O)[C@H](CCCCN)NC(=O)[C@H](CC(C)C)NC(=O)[C@H](CC(C)C)NC(=O)[C@H](Cc4ccccc4)NC(=O)[C@H](CO)NC(=O)[C@H](CC(N)=O)NC3=O)NC(=O)[C@H](CC(=O)O)NC(=O)[C@H](CSSC[C@H](NC(=O)[C@H](CCSC)NC(=O)[C@@H]3CCCN3C(=O)[C@@H](NC(=O)[C@H](CCC(N)=O)NC(=O)CNC(=O)[C@H](Cc3ccc(O)c(I)c3)NC(=O)[C@@H](N)CCCCN)C(C)C)C(=O)N[C@@H](CC(=O)O)C(=O)N[C@@H](C)C(=O)NCC(=O)N[C@@H](CCC(=O)O)C(=O)N[C@@H](CCC(N)=O)C(=O)N2)NC(=O)[C@H](CC(C)C)NC(=O)[C@H](CCCCN)NC(=O)CNC1=O | CART binding site, rat |  | differentiated PC-12 | pH 7.4 |  | Kd | 0.42 ± 0.11 nM
COc1cc(CNC(=O)C[C@H](C)CCC=C(C)C)ccc1OCc1cn(-c2ccc(Cl)cc2Cl)nn1 | Hs-578T breast cancer cells | SRB |  | 10 µM, 48 h |  | growth percent | 48.4%
O=C(N1CCCC1)n1cc(-c2ccc(-c3ccccc3)cc2)nn1 | mouse T-cells | N-terminal labeled proteins, N-terminal enrichment proteomics, measured: LARP1 |  | 1 nM, 6 h | relative to: DMSO | SILAC ratio | 1.21 ± 0.26

A few entries again:
SMILES | tested on | assay | system | conditions | scale | quantity | result
COc1cc2c(OC3OCC(OC)C(OC)C3OC(=O)c3ccc(Br)cc3)c3c(c(-c4ccc5c(c4)OCO5)c2cc1OC)C(=O)OC3 (stereo not shown) | CAL-27 | transwell |  | 0.1 and 1 µM, 36 h | relative to: DMSO | migrating cells | decreased
